{"data": "Values quoted from earlier work, collected from citations in different studies", "organism": "SARS-CoV-2", "note": "Protocols differ between the studies behind these lines. ± gives the spread as reported."}
{"SMILES": "C=C(CC)C(=O)c1ccc(OCC(=O)Nc2ccc3c(cnn3C)c2)c(Cl)c1Cl", "read-out": "viral replication", "quantity": "EC50", "value": "3.9 µM"}
{"SMILES": "N#Cc1ccccc1-c1cc(-c2cc(Cl)cc(OCC3CC3)c2)c(=O)n(-c2cccnc2)c1", "read-out": "viral replication", "quantity": "EC50", "value": "2 ± 0.7 µM"}
{"SMILES": "O=C(Oc1cncc(Cl)c1)c1cccc2[nH]ccc12", "cells": "Vero E6", "tested at": "concentration not given", "quantity": "antiviral activity", "value": "active"}
{"SMILES": "CCOC(=O)C=CC(CC1CCNC1=O)NC(=O)C(CC(C)C)NC(=O)C(NC(=O)OCc1ccccc1)C(C)OC(C)(C)C (centres unmarked)", "read-out": "viral replication", "quantity": "EC50", "value": "3.02 µM"}
{"SMILES": "N#Cc1ccccc1C[C@@H](N)C(=O)N[C@H](Cc1ccc(Cl)cc1Cl)C(=O)N[C@H](CC(=O)O)Cc1ccc(F)cc1", "read-out": "antiviral activity", "quantity": "EC50", "value": "40 µM"}
{"SMILES": "CCn1ccc(-c2cc(-c3cnn(C)c3)cc([C@@H](C)NC(=O)c3cc(OCCN(C)C)ccc3C)c2)n1", "quantity": "EC50", "value": "0.42 µM"}
{"SMILES": "Cc1ccc(N)cc1C(=O)N[C@H](C)c1cccc2ccccc12", "read-out": "viral replication", "cells": "Vero E6", "quantity": "IC50", "value": "35.4 ± 15 µM"}
{"SMILES": "CC(C)(C)NC(=O)N(CCCCCCN1C[C@H](O)[C@@H](O)[C@H](O)[C@H]1CO)C1CCCCC1", "cells": "A549-ACE2", "quantity": "EC90", "value": "4 µM"}
{"SMILES": "Cc1cc(C(=O)N[C@@H](C)C(=O)N[C@H](C(=O)N[C@@H](CC(C)C)C(=O)N[C@H](/C=C/C(=O)OCc2ccccc2)C[C@@H]2CCNC2=O)C(C)C)no1", "read-out": "viral replication", "quantity": "EC50", "value": "16.8 µM"}
{"SMILES": "Cc1ccc(N2CCN(C)CC2)cc1C(=O)NC1(c2cc(-c3cnn(C)c3)nc3ccccc23)CC1", "quantity": "EC50", "value": "0.15 µM"}
{"SMILES": "O=C(c1cccc(Cn2[se]c3ccccc3c2=O)c1)N1CCOCC1", "read-out": "viral replication", "method": "RT-qPCR", "cells": "Vero", "quantity": "EC50", "value": "3.74 µM"}
{"SMILES": "CNCc1ccc(C)c(C(=O)N[C@H](C)c2cccc3ccccc23)c1", "quantity": "EC50", "value": "20 µM"}
{"SMILES": "CC(C)C[C@H](NC(=O)OCc1ccccc1)C(=O)N[C@@H](C[C@@H]1CCNC1=O)C(O)S(=O)(=O)O (some centres unmarked)", "quantity": "EC50", "value": "0.7 µM"}
{"SMILES": "N#Cc1cccc(-n2[se]c3ccccc3c2=O)c1", "read-out": "viral replication", "method": "RT-qPCR", "cells": "Vero", "quantity": "EC50", "value": "2 µM"}
{"note": "Some of these lines once more:"}
{"SMILES": "N#Cc1ccccc1C[C@@H](N)C(=O)N[C@H](Cc1ccc(Cl)cc1Cl)C(=O)N[C@H](CC(=O)O)Cc1ccc(F)cc1", "read-out": "antiviral activity", "quantity": "EC50", "value": "40 µM"}
